Measurements gathered from unrelated publications.
Numbered parts are unrelated; each lists some results of a single study.
Sequence of UniProt P11388 (whole entry, looked up): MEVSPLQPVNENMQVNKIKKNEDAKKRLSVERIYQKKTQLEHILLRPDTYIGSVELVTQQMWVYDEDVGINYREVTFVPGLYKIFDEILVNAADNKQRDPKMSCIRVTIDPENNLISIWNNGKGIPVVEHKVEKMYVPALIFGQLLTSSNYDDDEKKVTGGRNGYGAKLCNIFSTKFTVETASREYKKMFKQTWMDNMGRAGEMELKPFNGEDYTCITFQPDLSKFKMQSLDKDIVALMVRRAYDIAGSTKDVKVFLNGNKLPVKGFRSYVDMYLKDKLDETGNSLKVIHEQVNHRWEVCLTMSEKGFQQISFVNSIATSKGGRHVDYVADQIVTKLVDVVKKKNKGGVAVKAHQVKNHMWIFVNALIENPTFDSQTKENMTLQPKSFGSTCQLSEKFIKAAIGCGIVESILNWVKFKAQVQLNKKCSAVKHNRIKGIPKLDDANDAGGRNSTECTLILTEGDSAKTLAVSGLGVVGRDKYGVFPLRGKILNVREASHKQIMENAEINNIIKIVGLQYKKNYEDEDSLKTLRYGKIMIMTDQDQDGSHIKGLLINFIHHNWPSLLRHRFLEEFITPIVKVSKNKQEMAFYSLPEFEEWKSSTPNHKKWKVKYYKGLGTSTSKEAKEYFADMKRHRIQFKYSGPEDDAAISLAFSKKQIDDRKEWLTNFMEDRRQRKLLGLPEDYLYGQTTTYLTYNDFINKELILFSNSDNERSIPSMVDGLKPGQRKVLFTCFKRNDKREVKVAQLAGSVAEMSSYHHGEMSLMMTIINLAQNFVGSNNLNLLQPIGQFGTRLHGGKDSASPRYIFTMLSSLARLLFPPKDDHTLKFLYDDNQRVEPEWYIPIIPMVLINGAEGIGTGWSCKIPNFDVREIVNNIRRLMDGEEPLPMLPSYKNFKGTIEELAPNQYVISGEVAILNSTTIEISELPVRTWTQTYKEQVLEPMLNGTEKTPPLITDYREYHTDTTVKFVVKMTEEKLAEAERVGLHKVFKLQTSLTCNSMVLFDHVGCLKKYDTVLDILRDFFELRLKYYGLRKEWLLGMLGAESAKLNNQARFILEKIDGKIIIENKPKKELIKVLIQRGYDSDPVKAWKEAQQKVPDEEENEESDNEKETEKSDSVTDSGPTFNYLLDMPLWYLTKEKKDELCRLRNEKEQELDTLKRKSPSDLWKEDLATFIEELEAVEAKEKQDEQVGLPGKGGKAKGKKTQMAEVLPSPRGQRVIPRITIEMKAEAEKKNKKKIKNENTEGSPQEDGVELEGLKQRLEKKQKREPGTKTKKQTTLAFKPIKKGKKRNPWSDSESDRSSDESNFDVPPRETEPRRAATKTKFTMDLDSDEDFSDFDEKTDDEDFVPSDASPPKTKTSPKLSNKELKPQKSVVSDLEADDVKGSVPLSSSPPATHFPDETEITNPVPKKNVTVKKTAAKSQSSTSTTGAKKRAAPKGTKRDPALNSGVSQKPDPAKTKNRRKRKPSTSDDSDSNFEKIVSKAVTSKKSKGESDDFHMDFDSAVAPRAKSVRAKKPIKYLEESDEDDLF

Set 1 — action: inhibitor; quantity: IC50
Target: Replicase polyprotein 1ab, nsp14 (rep, Severe acute respiratory syndrome coronavirus 2, UniProt P0DTD1)
SMILES = COc1ccccc1CNC(=O)c1cc(S(=O)(=O)N2CCc3ccccc3C2)c(C)n1C; result = 7.2 nM
SMILES = COc1ccccc1CNC(=O)c1cc(S(=O)(=O)N2CCC(C)CC2)c(C)n1C; result = 310 nM
SMILES = COc1ccccc1CNC(=O)c1cc(S(=O)(=O)N2CCC(C)CC2)c2n1CCC2; result = 380 nM

Single results of other studies
Structure (SMILES) = Fc1ccccc1Cc1nc(-c2nc(C(F)(F)F)n[nH]2)cn2ccnc12; test system = healthy human subjects, both sexes; setting = oral, 10 mg, fed; quantity = subjects with hepatic enzyme increased; result = 0%
Structure (SMILES) = N#CCC1CCN(c2nc(Nc3ccc(N4CCC(O)CC4)cc3)c3c(=O)[nH]ncc3n2)CC1; test = vs placebo, Olink multiplex; test system = human, serum; setting = 40 mg, day 29, unit not given; scale = reference: placebo; quantity = GIF level difference; result = 1.28
Structure (SMILES) = COc1cc([C@@H]2c3cc4c(cc3[C@@H](O[C@@H]3O[C@@H]5CO[C@@H](C)O[C@H]5[C@H](O)[C@H]3O)[C@H]3COC(=O)[C@H]23)OCO4)cc(OC)c1O; target or system = TOP2A (Homo sapiens, UniProt P11388); test = DNA decatenation, inhibitor, gel-based decatenation; setting = 25 µM; quantity = inhibition; result = 26.6%
Structure (SMILES) = CC1COc2ccccc2N1C(=O)C(Cl)Cl (centres unmarked); target or system = carboxylesterase; test = substrate depletion; test system = rhesus monkey, female, liver microsomes; setting = 5 µM, pH 7.4, without NADPH; quantity = intrinsic clearance; result = 800 µL/min/mg
Structure (SMILES) = COC(=O)Nc1c(N)nc(-c2nn(Cc3ccccc3F)c3ncc(F)cc23)nc1N; test system = humans, plasma; setting = oral, 10 mg single dose, phase I DDI study, alone; quantity = Cmax; result = 245 ng/mL
